Published values from different studies.
Numbered parts are unrelated; each lists some results of a single study.

Series 1 — method: protein-binding microarray; form: double-stranded DNA, one strand shown; matrix: in vitro; concentration: not given; direction: higher = stronger binding
Target: Protein C-ets-1 (ETS1, Homo sapiens, UniProt P14921, residues 1-441, Y397A, full length assumed)
Setting: k-mer, scored over probes, only values ≥0.25
Residues (chain): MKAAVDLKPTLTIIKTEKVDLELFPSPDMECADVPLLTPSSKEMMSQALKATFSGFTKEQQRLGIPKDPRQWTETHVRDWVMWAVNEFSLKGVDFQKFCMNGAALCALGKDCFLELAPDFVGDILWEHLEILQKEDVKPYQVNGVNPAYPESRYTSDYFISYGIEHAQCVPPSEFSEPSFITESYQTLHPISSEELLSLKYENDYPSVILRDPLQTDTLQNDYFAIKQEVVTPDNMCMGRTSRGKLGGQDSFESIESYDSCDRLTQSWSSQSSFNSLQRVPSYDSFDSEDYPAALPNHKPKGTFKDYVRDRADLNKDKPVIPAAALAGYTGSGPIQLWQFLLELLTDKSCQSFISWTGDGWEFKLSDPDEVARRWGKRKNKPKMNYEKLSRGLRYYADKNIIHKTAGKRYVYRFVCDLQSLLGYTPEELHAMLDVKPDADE
Sequence	E-score
CATTGTCC	0.281
GTCAACGA	0.284
CGCATCCG	0.303
TTGTCAAA	0.325
ATGACAAT	0.309
CAGACAAA	0.296
CAACATGA	0.32
CTTGACAA	0.321
AACGACGG	0.27
GTCGGATA	0.327
TCACCGGA	0.295
GTTTTGCA	0.318
ATTGGCAG	0.365
CGTTGTCA	0.316
CGATTGTC	0.258
ATGGCAAA	0.396

Series 2 — method: RNA Bind-n-Seq; form: RNA; matrix: in vitro; concentration: 1 µM; setting: whole 134-nt RNA, ends assumed; together with: 150 mM KCl; relative to: input library; direction: higher = stronger binding
Target: Ras GTPase-activating protein-binding protein 1, RRM domain (G3BP1, Homo sapiens, UniProt Q13283)
Sequence of UniProt Q13283 (whole entry, looked up): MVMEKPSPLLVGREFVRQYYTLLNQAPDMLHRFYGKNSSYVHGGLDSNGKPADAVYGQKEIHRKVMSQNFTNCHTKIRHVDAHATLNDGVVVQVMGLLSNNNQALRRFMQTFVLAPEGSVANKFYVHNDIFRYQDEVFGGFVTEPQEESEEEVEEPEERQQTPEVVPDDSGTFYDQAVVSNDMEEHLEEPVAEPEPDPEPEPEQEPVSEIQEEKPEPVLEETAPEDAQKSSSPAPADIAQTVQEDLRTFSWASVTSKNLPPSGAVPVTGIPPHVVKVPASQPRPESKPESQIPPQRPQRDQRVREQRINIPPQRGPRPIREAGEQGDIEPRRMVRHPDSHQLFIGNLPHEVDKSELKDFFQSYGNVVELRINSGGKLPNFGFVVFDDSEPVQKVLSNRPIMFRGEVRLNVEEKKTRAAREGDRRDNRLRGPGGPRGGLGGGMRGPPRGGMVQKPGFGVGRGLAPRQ
All sequences stand within: GGGAGUUCUACAGUCCGACGAUC … UGGAAUUCUCGGGUGUCAAGG
Sequence	log2 enrichment
UCCUGUGCUACACAUCGUAUGUACCGAAUCGGCCCCCCCGGGCCCCCCCGGCCCCCCCGGAAAGUAUUAUGUUACGCCGUUCGGAUCUGC	-0.365
UCAAGUCCUGUGCUACACAUCGUAUGUACCGAAUCGGGUUUGGGAAAGGGUGGGAAAGUAUUAUGUUACGCCGUUCGGAUCUGCACUUCC	0.727
AUGAAGAUGAAGAAGAGGAUGAUGAGGACGAGGAUGACGACGACGACGAAGAUGAUGAAGAUGAUGAUGAUGAAGAUGAUGAGGAGGAGG	-0.0947
CCUCAAGUCCUGUGCUACACAUCGUAUGUACCGAAUCGGGAAGGAAGGAAGGAAAGUAUUAUGUUACGCCGUUCGGAUCUGCACUUCCAG	-0.128
CCUGUGCUACACAUCGUAUGUACCGAAUCGGGGAAAAAAGGAAAAAAGGGGAAAAAAGGGAAAGUAUUAUGUUACGCCGUUCGGAUCUGC	0.00108
CUCAAGUCCUGUGCUACACAUCGUAUGUACCGAAUCGGAGGAAAGGAAAAAGGAAAGUAUUAUGUUACGCCGUUCGGAUCUGCACUUCCA	-0.264
AAGUCCUGUGCUACACAUCGUAUGUACCGAAUCGGUUUUUGGUUUUUGGUUUUUGGAAAGUAUUAUGUUACGCCGUUCGGAUCUGCACUU	-0.136
CUUGACCCUCAACACCAACCAUGGGCAUAUCCUGGUGGAUUACUCCAAGAACCUGGUGACGGAGGACGUGAUGCGGAUGCUGGUGGACUU	-0.404
ACCAUGCAGGUGGGCAUCUUUGGGAAGUGGGGCAAGGGGGGGAUAGGGAGGGGGGUAACAAAUUGGGAACAGGUGGUCCCAGGUCGUUUC	-0.459

Series 3 — method: RNA Bind-n-Seq; form: RNA; matrix: in vitro; concentration: not given; relative to: input RNA pool; direction: higher = stronger binding
Target: RING finger protein unkempt homolog, zinc fingers 1-6, GST-SBP tag (UNK, Homo sapiens, UniProt Q9C0B0, residues 30-357)
Sequence of UniProt Q9C0B0 (30-357, looked up): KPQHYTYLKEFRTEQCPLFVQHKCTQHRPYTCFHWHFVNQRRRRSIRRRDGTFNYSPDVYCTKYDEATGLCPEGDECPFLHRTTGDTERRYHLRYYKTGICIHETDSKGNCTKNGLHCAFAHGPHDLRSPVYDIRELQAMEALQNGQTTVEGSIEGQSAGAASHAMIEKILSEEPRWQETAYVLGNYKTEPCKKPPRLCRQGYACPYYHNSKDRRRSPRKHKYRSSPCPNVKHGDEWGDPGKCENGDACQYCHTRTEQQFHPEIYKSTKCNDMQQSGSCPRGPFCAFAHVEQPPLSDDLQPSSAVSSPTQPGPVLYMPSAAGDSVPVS
Setting: RNA with constant flanks, human and mouse sites, ends assumed
All sequences stand within: GGGAGUUCUACAGUCCGACGAUC … CAACAGAGGAUUGAGCAUCA
Sequence	bound/input enrichment [ratio]
AACAUUACUGUGCUAAGGAGCCAGUGUGAUGCUGCUUCCCAGACGGUUACUGGUCAUCAUUUAGAAACCCAUGAUUUAAAGAUUCUCAUUAGCUCUGGACAGCAGAAGUCAUUGGCUAAA	0.141
UACCACCAUGUACCCAGGCAUUGCUGACAGGAUGCAGAAGGAGAUUACUGCUCUGGCUCCUAGCACCAUGAAGAUCAAGAUCAUUGCUCCUCCUGAGCGCAAGUACUCUGUGUGGAUCGA	0.137
UCCGUUUUGGAAGAGUUGCAGAAAGACCUAGAAGAGGUCAAAGUAUUGCUGGAAAAGUCCACUAGGAAAAGACUACGUGAUACUCUUACAAGUGAAAAGUCCAAGAUUGAGACGGAACUC	0.356
GAGAUCUUUAUGUCUGAAGCUGGGAAAGUAAACCAGAAGAUUAAAGUAUGGUUUAGUGAUUACUUCAACAUCAGUGAUACAAUUGCCAUAAUUUCUUUCUUCAUUGGAUUUGGACUAAGA	0.236
CUAGGUGUGAGAGCUCUGGGGCACUGUGGGUGCGGUGAUCUGCAGGUAAAGCCCCACACCAUAGACAGUGCUCUGUAGGAAUAUAUGAAGGAUAUUUGCUUCUUGUGAGUCCAUUUCUUA	0.556
GUCUUGCUCAGCACGUACCUGAUAGUCCUCCUUGUUCUCCUGGCAGUUAUUAUAUGCACCGUGUUGGCCAUCGUGUGUGUCAGCAUGAGAGGAACCAUUUGUAACCCUGGACCUCGGAAG	0.218
GCUGAAAAUGAAGAAGAGGCAGCUGAUGUCUGGUACAACCUGGGGCACAUAGCUGUGGGAAUCGGAGAUACAAACUUGGCCCACCAAUGCUUCAGGCUGGCCCUGGUCCACAACAACCAC	0.13
CUGAGUCAUCCAUCCAGAAGGGGGGAGAGCAGAGCGCAGCCGCCCAGGCAGGAGCAUCAGCCAGCGAUACCUGGAGUCUGCAGAAACCUCGCCCGCACUUUGCAACAAAGGCAGCCAGCU	0.167

Other studies, line by line
Molecule	target	assay	system	setting	how to read	endpoint	value
PhoQ, residues 284 288 289 292 302 303 AGGLSV	PhoP, residues 12 14 15 18 19 TPWTL (Escherichia coli, UniProt P23836)	Sort-seq, refers to: YFP reporter	E. coli	PhoQ-PhoP variant library, together with: 10 µM Mg2+	relative to: high Mg2+ state, higher = stronger signaling	fold induction	1.11

Some of these lines once more (series 1):
Sequence	E-score
ATTGGCAG	0.365
CGTTGTCA	0.316
CGATTGTC	0.258
